Results collected from several papers.
A part holds a random share of what one study measured. Changes are numbered by the printed parent chain.
UniProt O24410, sequence (whole entry, looked up): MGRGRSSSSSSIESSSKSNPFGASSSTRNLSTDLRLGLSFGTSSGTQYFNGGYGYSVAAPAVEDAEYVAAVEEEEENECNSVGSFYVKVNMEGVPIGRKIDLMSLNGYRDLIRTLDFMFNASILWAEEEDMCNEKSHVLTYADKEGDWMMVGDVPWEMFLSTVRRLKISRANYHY
UniProt Q9XID4, sequence (whole entry, looked up): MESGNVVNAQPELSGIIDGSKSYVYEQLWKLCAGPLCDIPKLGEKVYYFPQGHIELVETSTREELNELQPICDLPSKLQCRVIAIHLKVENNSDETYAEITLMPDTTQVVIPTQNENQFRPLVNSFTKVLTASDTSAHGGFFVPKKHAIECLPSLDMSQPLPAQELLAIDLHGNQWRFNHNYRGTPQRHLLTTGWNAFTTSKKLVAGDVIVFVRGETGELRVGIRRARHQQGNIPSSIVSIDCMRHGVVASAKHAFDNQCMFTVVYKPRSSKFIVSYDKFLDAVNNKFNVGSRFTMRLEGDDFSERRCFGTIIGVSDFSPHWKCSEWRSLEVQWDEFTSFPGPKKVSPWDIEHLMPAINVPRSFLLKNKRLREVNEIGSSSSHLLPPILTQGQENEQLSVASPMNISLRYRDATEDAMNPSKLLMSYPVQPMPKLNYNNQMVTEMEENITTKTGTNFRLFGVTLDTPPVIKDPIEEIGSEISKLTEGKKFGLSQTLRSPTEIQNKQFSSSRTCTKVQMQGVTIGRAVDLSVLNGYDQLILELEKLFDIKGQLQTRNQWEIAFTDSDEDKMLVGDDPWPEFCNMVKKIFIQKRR
UniProt P61088, sequence (whole entry, looked up): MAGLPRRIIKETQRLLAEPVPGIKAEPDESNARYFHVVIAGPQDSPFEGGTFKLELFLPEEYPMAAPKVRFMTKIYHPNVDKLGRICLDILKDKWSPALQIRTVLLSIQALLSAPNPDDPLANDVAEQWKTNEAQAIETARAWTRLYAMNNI
UniProt P62256, sequence (whole entry, looked up): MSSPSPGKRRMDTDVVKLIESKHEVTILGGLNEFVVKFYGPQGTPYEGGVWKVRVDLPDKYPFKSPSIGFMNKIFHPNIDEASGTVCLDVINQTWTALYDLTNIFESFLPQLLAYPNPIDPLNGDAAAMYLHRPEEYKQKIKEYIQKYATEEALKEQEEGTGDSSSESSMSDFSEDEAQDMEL
UniProt Q9FGV1, sequence (whole entry, looked up): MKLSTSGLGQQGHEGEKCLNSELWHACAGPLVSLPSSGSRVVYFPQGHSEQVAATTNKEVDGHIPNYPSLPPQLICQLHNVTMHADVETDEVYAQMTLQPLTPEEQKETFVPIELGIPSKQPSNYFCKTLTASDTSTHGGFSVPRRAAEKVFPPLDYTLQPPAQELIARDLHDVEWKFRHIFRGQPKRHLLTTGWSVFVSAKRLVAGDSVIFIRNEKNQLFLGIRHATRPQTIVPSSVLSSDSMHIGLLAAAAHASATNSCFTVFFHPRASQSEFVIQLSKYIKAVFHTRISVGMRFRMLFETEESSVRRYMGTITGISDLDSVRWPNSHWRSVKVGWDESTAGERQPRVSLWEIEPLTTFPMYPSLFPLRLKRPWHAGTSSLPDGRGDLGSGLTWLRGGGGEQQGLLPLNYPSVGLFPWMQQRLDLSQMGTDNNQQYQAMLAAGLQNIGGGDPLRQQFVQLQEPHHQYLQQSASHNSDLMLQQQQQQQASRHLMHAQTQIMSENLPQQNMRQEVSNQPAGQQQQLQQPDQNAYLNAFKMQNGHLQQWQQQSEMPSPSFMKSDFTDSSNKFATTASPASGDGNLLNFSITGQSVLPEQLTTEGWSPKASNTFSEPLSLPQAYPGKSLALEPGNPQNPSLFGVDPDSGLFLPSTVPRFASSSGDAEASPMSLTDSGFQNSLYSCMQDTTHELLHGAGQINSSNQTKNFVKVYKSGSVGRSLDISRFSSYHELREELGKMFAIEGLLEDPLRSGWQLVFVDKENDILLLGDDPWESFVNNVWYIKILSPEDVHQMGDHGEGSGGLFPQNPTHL
UniProt Q84WU6, sequence (whole entry, looked up): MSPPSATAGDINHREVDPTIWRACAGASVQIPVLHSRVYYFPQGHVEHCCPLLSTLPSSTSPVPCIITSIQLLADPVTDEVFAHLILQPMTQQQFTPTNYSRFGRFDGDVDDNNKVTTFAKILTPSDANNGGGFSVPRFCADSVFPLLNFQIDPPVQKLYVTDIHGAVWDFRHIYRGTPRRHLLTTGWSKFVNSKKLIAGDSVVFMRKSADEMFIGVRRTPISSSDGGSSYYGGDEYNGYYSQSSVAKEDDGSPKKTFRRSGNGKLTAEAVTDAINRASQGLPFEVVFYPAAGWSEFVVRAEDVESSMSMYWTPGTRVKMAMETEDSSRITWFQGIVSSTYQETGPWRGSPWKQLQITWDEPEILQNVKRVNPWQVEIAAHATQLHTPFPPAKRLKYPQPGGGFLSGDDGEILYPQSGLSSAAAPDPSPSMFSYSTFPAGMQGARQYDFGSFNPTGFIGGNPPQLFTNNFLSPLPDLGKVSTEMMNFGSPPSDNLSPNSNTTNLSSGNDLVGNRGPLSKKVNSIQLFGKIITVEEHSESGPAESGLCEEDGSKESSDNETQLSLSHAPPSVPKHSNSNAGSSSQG
UniProt Q15819, sequence (whole entry, looked up): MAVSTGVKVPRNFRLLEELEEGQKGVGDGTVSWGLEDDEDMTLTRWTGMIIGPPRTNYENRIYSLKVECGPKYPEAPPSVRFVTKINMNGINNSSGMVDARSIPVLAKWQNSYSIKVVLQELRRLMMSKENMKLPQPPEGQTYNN
UniProt Q8WVN8, sequence (whole entry, looked up): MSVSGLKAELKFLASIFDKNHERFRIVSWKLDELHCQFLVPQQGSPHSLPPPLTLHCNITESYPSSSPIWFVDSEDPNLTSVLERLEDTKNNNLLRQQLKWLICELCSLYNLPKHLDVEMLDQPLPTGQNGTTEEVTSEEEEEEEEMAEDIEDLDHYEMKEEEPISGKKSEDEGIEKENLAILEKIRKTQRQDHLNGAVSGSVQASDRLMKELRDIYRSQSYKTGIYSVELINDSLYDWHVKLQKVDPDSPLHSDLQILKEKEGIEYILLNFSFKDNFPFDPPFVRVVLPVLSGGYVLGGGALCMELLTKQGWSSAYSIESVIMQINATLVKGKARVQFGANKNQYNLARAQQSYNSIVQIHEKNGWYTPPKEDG
UniProt Q9ZPY6, sequence (whole entry, looked up): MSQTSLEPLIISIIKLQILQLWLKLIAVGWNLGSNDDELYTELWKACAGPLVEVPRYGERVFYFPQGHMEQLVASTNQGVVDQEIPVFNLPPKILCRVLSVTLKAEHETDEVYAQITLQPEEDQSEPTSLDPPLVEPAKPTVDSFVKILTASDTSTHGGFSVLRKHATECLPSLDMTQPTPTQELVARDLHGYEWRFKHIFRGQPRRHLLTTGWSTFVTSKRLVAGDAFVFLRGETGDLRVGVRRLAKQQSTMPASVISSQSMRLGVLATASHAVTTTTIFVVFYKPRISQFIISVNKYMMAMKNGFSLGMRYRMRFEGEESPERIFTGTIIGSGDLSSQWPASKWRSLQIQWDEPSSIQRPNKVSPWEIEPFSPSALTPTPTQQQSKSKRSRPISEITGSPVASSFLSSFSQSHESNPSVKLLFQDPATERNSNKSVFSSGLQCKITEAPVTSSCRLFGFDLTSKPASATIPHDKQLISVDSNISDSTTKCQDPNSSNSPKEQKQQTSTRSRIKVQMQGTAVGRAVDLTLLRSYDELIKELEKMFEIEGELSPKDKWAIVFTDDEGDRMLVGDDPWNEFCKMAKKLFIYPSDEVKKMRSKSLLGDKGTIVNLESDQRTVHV
UniProt Q9SKN5, sequence (whole entry, looked up): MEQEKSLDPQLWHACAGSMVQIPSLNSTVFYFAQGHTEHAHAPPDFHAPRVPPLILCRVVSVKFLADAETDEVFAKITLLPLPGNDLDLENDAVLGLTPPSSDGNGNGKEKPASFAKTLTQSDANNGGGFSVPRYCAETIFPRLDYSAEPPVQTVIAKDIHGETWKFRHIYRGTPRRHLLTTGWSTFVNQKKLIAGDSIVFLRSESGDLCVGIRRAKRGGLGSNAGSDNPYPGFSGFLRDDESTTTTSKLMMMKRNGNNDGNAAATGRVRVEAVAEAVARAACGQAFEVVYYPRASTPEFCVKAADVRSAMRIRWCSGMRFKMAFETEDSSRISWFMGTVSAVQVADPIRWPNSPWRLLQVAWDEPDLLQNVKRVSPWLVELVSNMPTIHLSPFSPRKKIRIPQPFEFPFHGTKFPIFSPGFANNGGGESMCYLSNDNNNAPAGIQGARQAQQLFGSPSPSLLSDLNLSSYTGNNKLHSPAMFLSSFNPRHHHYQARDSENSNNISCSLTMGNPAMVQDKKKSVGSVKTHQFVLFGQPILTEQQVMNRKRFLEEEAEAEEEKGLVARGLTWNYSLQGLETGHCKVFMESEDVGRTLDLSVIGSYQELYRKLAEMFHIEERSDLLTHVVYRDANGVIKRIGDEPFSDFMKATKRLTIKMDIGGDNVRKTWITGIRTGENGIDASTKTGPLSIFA
UniProt Q13404, sequence (whole entry, looked up): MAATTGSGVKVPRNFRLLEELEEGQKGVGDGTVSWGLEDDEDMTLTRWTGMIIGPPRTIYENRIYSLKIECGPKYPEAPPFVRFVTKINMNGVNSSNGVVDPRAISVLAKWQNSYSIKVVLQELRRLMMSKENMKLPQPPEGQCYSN

Sample 1 — technique: DHFR PCA, deep sequencing; sample: yeast; with: (+)-ABA 0.39 µM; baseline: wild-type fitted maximum; reading: higher = stronger binding; quantity: relative binding score
Target: ABI1, truncated, D143A, DHFR fusion (Arabidopsis thaliana)
Setting: methotrexate growth selection, single substitutions
Parent: PYL1, truncated, DHFR fusion (Arabidopsis thaliana); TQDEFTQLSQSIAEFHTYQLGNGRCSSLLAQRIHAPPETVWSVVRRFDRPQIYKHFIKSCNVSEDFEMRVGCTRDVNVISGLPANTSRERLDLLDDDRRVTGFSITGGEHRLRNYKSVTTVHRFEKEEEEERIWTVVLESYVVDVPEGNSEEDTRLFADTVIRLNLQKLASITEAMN
S104L: -1.89%
L138P: -6.57%
E14V: -0.692%
Y115G: 9.55%
E147A: 26.2%
L164Y: 20.3%
L91I: -6.28%
R69A: 39.2%
E139H: 13%
T86L: 23.3%
S9Y: 34.7%
C60W: 4.48%
S42Q: 41.9%
Y115M: -8.66%
E109C: 10.6%
S117H: 8.19%
S9H: 45.7%

Sample 2 — technique: RNA Bind-n-Seq; form: RNA; sample: in vitro; tested at: 1 µM; setting: whole 134-nt RNA, ends assumed; with: 150 mM KCl; baseline: input library; reading: higher = stronger binding; quantity: log2 enrichment
Target: Ras GTPase-activating protein-binding protein 1, C-terminal RGG region (G3BP1, Homo sapiens, UniProt Q13283)
UniProt Q13283, sequence (whole entry, looked up): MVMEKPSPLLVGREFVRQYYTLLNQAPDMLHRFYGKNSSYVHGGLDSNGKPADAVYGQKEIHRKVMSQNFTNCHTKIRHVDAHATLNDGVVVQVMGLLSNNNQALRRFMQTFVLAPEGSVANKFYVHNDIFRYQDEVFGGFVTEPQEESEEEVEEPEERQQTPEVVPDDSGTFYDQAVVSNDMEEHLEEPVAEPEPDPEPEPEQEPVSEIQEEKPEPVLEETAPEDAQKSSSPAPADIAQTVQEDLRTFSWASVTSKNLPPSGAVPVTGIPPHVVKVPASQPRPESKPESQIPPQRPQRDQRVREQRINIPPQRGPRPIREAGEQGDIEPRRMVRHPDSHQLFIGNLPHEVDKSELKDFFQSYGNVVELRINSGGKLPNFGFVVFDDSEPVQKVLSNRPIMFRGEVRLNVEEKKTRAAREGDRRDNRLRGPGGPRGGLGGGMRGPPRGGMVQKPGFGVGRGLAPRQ
All sequences stand within: GGGAGUUCUACAGUCCGACGAUC … UGGAAUUCUCGGGUGUCAAGG
UCAAGUCCUGUGCUACACAUCGUAUGUACCGAAUCGGGGCCGGGCCGGGGCCGGGAAAGUAUUAUGUUACGCCGUUCGGAUCUGCACUUC: -0.778
CCUGUGCUACACAUCGUAUGUACCGAAUCGGUUUUUUUGGUUUUUUUGGGUUUUUUUGGGAAAGUAUUAUGUUACGCCGUUCGGAUCUGC: -1.86
UCUUGUAUGACUUAACCCCUGUUUCUAAUACAGGGGCCGCUCUCCUCAGCCUCCUGCUGAAGAGGAUGAAGAUGACUUUGAUGAUACCCU: -0.717
AAGUCCUGUGCUACACAUCGUAUGUACCGAAUCGGAAAAAAAGGUUUUUUUGGAGGAAAGUAUUAUGUUACGCCGUUCGGAUCUGCACUU: -2.27
UCCUGUGCUACACAUCGUAUGUACCGAAUCGGGGAAAAAAGGGGAAAAAAGGAAAAAAGGAAAGUAUUAUGUUACGCCGUUCGGAUCUGC: -1.2
CUGUGCUACACAUCGUAUGUACCGAAUCGGGGAAAAAAAGGGGAAAAAAAGGGGUUUGGGGAAAGUAUUAUGUUACGCCGUUCGGAUCUG: 0.0417
UUCCUCAAGUCCUGUGCUACACAUCGUAUGUACCGAAUCGGGCGGCGGCGGAAAGUAUUAUGUUACGCCGUUCGGAUCUGCACUUCCAGC: -0.727
GUCCUGUGCUACACAUCGUAUGUACCGAAUCGGGUUUUUUUGGGAAAAAGGGUUUGGGAAAGUAUUAUGUUACGCCGUUCGGAUCUGCAC: -0.363
UAAGGCCAGUAAAAUUUUAGUACCUGGAGGUUUGACUCUAAUUUUUGCACUGAUGGUGCCAAAGGGCCCUGAGUCAAAAGGAUAGCCAAG: -2.41
UCCUCAAGUCCUGUGCUACACAUCGUAUGUACCGAAUCGGGCGGGCGGCGGGAAAGUAUUAUGUUACGCCGUUCGGAUCUGCACUUCCAG: -0.25
GUCCUGUGCUACACAUCGUAUGUACCGAAUCGGGUUUUUUUGGGUUUUUGGGUUUGGGAAAGUAUUAUGUUACGCCGUUCGGAUCUGCAC: -0.223
AGUCCUGUGCUACACAUCGUAUGUACCGAAUCGGGAAAGGGUUUGGGUUUUUUUGGGAAAGUAUUAUGUUACGCCGUUCGGAUCUGCACU: 0.433
GUCCUGUGCUACACAUCGUAUGUACCGAAUCAAACCCCCAAACCCCCAAACCCCCAAAAAAGUAUUAUGUUACGCCGUUCGGAUCUGCAC: -1.02
CACAGACAACACGCACCCACACAGACACAGAGGGAAGGGGUUGGGAUGGGGACAGGGUGCACAGGAGGGCGGGGUAGGACCCCAGCCCCU: 0.00986

Sample 3 — target: CCNB2, cyclin fold, Cln2 fusion (human); technique: yeast growth competition, sequencing; sample: yeast; setting: weak parent motif; baseline: not given; reading: higher = stronger binding; quantity: normalised enrichment score
Parent: CDKN1A docking peptide (human); SKACRRLFGPVDS; partner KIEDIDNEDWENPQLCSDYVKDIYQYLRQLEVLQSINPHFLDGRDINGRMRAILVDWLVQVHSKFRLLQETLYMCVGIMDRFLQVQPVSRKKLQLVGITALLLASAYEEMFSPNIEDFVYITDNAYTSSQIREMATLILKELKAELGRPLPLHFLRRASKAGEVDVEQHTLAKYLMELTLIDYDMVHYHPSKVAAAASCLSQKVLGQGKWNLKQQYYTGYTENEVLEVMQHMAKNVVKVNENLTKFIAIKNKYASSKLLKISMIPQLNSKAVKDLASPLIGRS
SKACRRFFGPVDS [L7F]: 0.582
SKACKRLLGPVDS [R5K F8L]: 0.948
SKACRRLFGPVFS [D12F]: 0.208
SKACRLLFGPVDS [R6L]: -0.0625
SRACRRLFGPVDS [K2R]: 0.201
SKACRRKFGPVDS [L7K]: 0.765
SYACRRLFGPVDS [K2Y]: 0.376
SKACRRSFGPVDS [L7S]: 0.232
SKACRRLPGPVDS [F8P]: 0.0864
SKACRRLSGPVDS [F8S]: -0.0775
SKACRCLFGPVDS [R6C]: -0.251
SKACRRLWGPVDS [F8W]: -0.222
SLACRRLFGPVDS [K2L]: -0.217
SKLCRRLFGPVDS [A3L]: 0.102
SKACRRLAGPVDS [F8A]: 0.217
SKACRRGFGPVDS [L7G]: -0.0292

Sample 4 — technique: protein-binding microarray; form: double-stranded DNA, one strand shown; sample: in vitro; tested at: not given; reading: higher = stronger binding; quantity: E-score
Target: Protein C-ets-1 (ETS1, Homo sapiens, UniProt P14921, residues 1-441, full length assumed)
Setting: k-mer, scored over probes, only values ≥0.25
Construct (chain): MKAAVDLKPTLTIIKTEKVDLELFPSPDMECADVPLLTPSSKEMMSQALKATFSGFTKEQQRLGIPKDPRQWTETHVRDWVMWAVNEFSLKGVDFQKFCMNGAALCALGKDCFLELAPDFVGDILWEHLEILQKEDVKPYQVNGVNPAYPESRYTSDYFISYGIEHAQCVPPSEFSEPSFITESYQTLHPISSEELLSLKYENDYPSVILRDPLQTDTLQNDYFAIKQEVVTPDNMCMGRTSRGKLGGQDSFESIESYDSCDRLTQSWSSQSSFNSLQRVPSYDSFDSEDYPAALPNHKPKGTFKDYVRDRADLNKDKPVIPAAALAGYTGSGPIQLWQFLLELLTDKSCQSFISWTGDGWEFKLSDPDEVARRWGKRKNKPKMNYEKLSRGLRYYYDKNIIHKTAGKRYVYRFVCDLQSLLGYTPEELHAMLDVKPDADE
ACACCGGA: 0.469
GGGAAATA: 0.355
AGGATGGA: 0.332
ATTTCCTC: 0.43
CAGGATAG: 0.308
CTCTTTCC: 0.311
CCGATTCC: 0.351
ACCTCCCC: 0.268
CACCGGAG: 0.273
ACCGGCAG: 0.259
CCGGACGC: 0.463
ATCCGGCC: 0.462
ATCCGATA: 0.294
TCCGTTCA: 0.294
GAAGCATC: 0.321
ATTCCGGG: 0.293
CATCCCGC: 0.3
CCGGGAAA: 0.371
AGTGGAAG: 0.265
GGATGGCA: 0.256
GGATATCA: 0.313
ACCGGAGA: 0.296
TCACCGGA: 0.448
ACCCCGGT: 0.254
TGCGGGAA: 0.256

Sample 5 — technique: protein binding microarray; form: double-stranded DNA, one strand shown; sample: in vitro; tested at: not given; baseline: not given; reading: higher = stronger binding; quantity: E-score
Target: Histone acetyltransferase KAT6A, winged helix 1, GST fusion (KAT6A, Homo sapiens, UniProt Q92794, residues 1-85)
Setting: 8-mer, flanks averaged, mean of 2 arrays, mostly near background
Construct (chain): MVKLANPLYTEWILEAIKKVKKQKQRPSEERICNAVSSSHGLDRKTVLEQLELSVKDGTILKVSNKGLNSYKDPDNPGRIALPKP
AACACACT: -0.0155
ACTCTACG: -0.148
CTGTTCTC: -0.129
CGGGACCA: 0.123
ACCGTCAC: 0.0843
ATTATATC: -0.0737
ACGAAGAG: 0.0158
CCACTTGA: -0.143
AATGTTAC: 0.105
TCCTATAA: -0.184
CATCGTTA: -0.126
AACGCCCA: -0.102
GCAAAGGC: 0.0509
TACGATGA: -0.0434
AGAACATC: -0.162
ACAAGCGC: 0.343
ATACTAGG: -0.0845
AGTACCCC: 0.0471
GTTTACCA: -0.126
CTTAGAGA: -0.151
GATTATGA: -0.282
GATGTGAC: 0.00908
CTTAGTGA: -0.192
CGAACTGC: 0.0265

Sample 6 — Sequence: B1 (IAA12); technique: two-hybrid; baseline: out of 4 tests; reading: higher = firmer interaction; quantity: positive tests
B1: IAA12 (Arabidopsis thaliana, UniProt Q38830); chain MRGVSELEVGKSNLPAESELELGLGLSLGGGAWKERGRILTAKDFPSVGSKRSAESSSHQGASPPRSSQVVGWPPIGLHRMNSLVNNQAMKAARAEEGDGEKKVVKNDELKDVSMKVNPKVQGLGFVKVNMDGVGIGRKVDMRAHSSYENLAQTLEEMFFGMTGTTCREKVKPLRLLDGSSDFVLTYEDKEGDWMLVGDVPWRMFINSVKRLRIMGTSEASGLAPRRQEQKDRQRNNPV
ARF11 500-622 (Arabidopsis thaliana, UniProt Q9ZPY6): 0
ARF8 699-811 (Arabidopsis thaliana, UniProt Q9FGV1): 4
ARF12 500-593 (Arabidopsis thaliana, UniProt Q9XID4): 0
ARF17 (Arabidopsis thaliana, UniProt Q84WU6); weak activation fusion: 0
ARF10 575-693 (Arabidopsis thaliana, UniProt Q9SKN5): 0
IAA15 (Arabidopsis thaliana, UniProt Q9C966): 2
IAA20 (Arabidopsis thaliana, UniProt O24410); weak activation fusion: 2

Sample 7 — Molecule: BRCA1 RING domain (UniProt P38398); technique: yeast two-hybrid; sample: yeast; setting: mostly zero background; baseline: not given; reading: higher = stronger interaction; quantity: lacZ reporter activity
UBE2H UBC core domain (UniProt P62256): 0
UBE2Q2 UBC core domain (UniProt Q8WVN8): 0
UBE2V2 UBC core domain (UniProt Q15819): 0
UBE2V1 UBC core domain (UniProt Q13404): 0
UBE2N UBC core domain (UniProt P61088): 0
